# Measurements gathered from unrelated publications.
# Protocols differ between the studies behind these lines. ± gives the spread as reported.
SMILES,assay,test system,conditions,how to read,measurement,value
COc1ccc(C2CC(c3ccc(C)cc3)=Nc3ccccc3S2)cc1OC (centres unmarked),,"rat, normal, overnight fasted","oral, 20 mg/kg, 120 min, oral glucose tolerance test, together with: glucose 3 g/kg oral",,blood glucose,108 ± 4.75 mg/dL
C=C(c1cc(F)c(C(=O)O)c(F)c1)c1cc2c(cc1C)C(C)(C)CCC2(C)C,"RNA sequencing, item: Angptl4 mRNA","rat, brain","dose not given, 24 h, single dose",baseline: vehicle,log2 fold change,0.28
C[C@@H](O)[C@@H]1NC(=O)[C@H](CCCCN)NC(=O)[C@@H](Cc2ccc(NC(N)=O)cc2)NC(=O)[C@H](Cc2ccc(NC(=O)[C@@H]3CC(=O)NC(=O)N3)cc2)NC(=O)[C@H](NC(=O)[C@H](Cc2ccc(Cl)cc2)NC(=O)CN2CCN(CC(=O)O)CCN(CC(=O)O)CCN(CC(=O)O)CC2)CSSC[C@@H](C(=O)N[C@H](Cc2ccc(O)cc2)C(N)=O)NC1=O [gallium-68 labelled],PET/CT,"human neuroendocrine tumour patients, bone lesions",60 min,,SUVmean,4 ± 2
NC(=S)N/N=C1\c2ccccc2-c2nc3cc(F)ccc3nc21,,"mouse, STZ-induced diabetes","oral, 25 mg/kg, day 3",,blood glucose,352 ± 16.6 mg/dL
CC[C@H]1[C@@H](O)[C@@H]2[C@H](CC[C@]3(C)[C@@H]([C@H](C)CCOS(=O)(=O)[O-])CC[C@@H]23)[C@@]2(C)CC[C@@H](O)C[C@@H]12.[Na+],,"ob/ob NASH mice, blood","oral, 3 mg/kg once daily, week 8",,fed blood glucose,6.8 ± 0.2 mmol/L
CCCCCCCCCCCCCCCC(=O)N[C@@H](CCC(=O)NCCCC[C@H](NC(=O)[C@H](CC(=O)O)NC(=O)[C@H](CO)NC(=O)[C@@H](NC(=O)[C@H](Cc1ccccc1)NC(=O)[C@@H](NC(=O)CNC(=O)[C@H](CCC(N)=O)NC(=O)[C@H](CO)NC(=O)[C@@H](N)Cc1c[nH]cn1)[C@@H](C)O)[C@@H](C)O)C(=O)N[C@@H](CO)C(=O)N[C@@H](CCC(=O)O)C(=O)N[C@@H](Cc1ccc(O)cc1)C(=O)N[C@@H](CC(C)C)C(=O)N[C@@H](CC(=O)O)C(=O)N[C@@H](CO)C(=O)N[C@@H](CCC(=O)O)C(=O)N[C@@H](CCCNC(=N)N)C(=O)N[C@@H](C)C(=O)N[C@@H](CCCNC(=N)N)C(=O)N[C@@H](CC(=O)O)C(=O)N[C@@H](Cc1ccccc1)C(=O)N[C@H](C(=O)N[C@@H](C)C(=O)N[C@@H](Cc1c[nH]c2ccccc12)C(=O)N[C@@H](CC(C)C)C(=O)N[C@@H](CCC(=O)O)C(=O)N[C@@H](C)C(=O)NCC(=O)NCC(=O)O)C(C)C)C(=O)O,,diet-induced obese mouse,"subcutaneous, 10 nmol/kg single dose, 0-12 h",baseline: vehicle,food intake,~31%
CC1=CC(C)=[N+]2C1=Cc1ccc(CCC(=O)N3CCN(C(=O)c4cc(Cc5n[nH]c(=O)c6ccccc56)ccc4F)CC3)n1[B-]2(F)F,,"mice, orthotopic U87 glioblastoma, tumour-bearing brain","intravenous, 2.5 mg/kg, 1 h",,maximum radiant efficiency,5e+08
Cc1cc(O)c(C=O)c2c1C(=O)Oc1c(CO)c(O)c3c(c1O2)C(O)OC3=O (centres unmarked),,"streptozotocin-diabetic male albino rats, serum","dose not given, 9 weeks",baseline: diabetic control,testosterone level,increased

# For quick reference, copied from above:
SMILES,assay,test system,conditions,how to read,measurement,value
COc1ccc(C2CC(c3ccc(C)cc3)=Nc3ccccc3S2)cc1OC (centres unmarked),,"rat, normal, overnight fasted","oral, 20 mg/kg, 120 min, oral glucose tolerance test, together with: glucose 3 g/kg oral",,blood glucose,108 ± 4.75 mg/dL
